Assay results gathered from unrelated publications.
± gives the spread as reported.
PTPN1: Tyrosine-protein phosphatase non-receptor type 1 (PTPN1, Homo sapiens, UniProt P18031)

Sequences of proteins named here, by UniProt entry; tags and fusion partners are left off. A change or cut given only in a name is not applied to a line headed by its entry. Residues count along the entry.
UniProt P18031, 1-321 limits assumed: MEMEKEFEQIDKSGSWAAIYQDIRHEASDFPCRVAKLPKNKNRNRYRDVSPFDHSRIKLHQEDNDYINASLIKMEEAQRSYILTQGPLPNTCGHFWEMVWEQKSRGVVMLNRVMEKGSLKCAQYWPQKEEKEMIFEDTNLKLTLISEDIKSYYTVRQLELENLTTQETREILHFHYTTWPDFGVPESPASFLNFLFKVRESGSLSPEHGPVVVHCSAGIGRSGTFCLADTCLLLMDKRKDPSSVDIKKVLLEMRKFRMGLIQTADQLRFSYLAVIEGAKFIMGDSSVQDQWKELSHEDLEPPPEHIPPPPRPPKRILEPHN
UniProt P16083, whole entry: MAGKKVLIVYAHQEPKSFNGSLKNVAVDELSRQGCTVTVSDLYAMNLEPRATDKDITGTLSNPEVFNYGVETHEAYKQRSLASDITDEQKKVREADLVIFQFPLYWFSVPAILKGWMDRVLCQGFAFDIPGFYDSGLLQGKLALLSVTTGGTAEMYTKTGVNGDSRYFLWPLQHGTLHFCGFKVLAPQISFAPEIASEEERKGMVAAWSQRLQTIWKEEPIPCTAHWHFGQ
UniProt P00573, whole entry: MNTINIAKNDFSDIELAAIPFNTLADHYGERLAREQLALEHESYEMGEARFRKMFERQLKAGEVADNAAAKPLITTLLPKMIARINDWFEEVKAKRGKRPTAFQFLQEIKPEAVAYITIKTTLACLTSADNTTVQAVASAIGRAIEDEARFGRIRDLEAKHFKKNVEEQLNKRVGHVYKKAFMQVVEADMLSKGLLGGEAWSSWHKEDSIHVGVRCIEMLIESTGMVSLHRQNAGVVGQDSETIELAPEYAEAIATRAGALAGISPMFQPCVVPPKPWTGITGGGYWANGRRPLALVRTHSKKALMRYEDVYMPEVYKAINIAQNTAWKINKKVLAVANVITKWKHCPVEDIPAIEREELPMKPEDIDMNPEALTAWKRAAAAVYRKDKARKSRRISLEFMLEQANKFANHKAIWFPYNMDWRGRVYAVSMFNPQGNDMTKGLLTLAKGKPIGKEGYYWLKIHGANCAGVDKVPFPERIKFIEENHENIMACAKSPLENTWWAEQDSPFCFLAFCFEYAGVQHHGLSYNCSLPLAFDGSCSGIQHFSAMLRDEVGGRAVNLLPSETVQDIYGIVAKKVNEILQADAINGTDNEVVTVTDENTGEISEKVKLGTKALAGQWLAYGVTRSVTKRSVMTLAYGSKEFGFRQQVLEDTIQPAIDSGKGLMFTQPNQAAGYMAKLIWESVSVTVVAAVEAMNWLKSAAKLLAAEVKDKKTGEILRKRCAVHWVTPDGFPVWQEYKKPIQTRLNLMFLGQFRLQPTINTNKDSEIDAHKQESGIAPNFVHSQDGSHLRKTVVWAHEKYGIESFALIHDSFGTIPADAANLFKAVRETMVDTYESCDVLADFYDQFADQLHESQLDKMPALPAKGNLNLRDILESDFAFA
UniProt Q9UBN7, whole entry: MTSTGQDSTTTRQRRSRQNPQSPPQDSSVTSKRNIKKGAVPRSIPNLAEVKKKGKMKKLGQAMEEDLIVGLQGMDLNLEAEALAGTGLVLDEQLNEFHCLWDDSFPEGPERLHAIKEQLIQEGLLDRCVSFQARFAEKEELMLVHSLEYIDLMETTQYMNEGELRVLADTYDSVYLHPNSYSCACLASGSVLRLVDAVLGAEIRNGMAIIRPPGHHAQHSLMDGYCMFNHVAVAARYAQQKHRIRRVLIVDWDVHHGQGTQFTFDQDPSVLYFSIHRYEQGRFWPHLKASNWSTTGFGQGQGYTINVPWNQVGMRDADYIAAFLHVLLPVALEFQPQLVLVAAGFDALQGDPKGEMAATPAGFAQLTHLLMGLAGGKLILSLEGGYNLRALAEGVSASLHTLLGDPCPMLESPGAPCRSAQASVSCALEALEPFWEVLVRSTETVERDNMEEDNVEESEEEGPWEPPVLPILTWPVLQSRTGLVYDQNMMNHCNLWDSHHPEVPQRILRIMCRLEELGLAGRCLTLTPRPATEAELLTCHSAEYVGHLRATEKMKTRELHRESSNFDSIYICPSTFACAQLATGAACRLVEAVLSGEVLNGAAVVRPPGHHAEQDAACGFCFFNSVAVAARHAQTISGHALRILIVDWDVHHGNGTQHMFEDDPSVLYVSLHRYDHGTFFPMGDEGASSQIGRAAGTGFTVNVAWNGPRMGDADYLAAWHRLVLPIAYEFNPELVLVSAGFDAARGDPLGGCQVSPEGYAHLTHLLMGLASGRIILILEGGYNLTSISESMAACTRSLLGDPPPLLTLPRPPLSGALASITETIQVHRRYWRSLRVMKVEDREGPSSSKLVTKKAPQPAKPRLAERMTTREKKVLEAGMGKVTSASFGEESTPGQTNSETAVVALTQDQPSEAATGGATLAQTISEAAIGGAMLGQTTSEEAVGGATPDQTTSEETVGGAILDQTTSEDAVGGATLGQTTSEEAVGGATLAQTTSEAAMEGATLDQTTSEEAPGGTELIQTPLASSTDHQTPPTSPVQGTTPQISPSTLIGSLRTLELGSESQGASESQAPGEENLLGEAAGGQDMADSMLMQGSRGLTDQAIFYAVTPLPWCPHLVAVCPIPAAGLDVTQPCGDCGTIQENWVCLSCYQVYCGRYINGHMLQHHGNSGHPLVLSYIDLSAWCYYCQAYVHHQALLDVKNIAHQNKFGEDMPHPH
UniProt P61981, whole entry: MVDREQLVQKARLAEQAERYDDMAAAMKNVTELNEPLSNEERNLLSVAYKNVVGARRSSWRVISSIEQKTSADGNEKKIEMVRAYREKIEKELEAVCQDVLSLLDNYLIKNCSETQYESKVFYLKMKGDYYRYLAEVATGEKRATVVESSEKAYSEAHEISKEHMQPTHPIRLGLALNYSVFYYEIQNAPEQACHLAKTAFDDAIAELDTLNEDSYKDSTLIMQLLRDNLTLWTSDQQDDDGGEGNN
UniProt Q06850, whole entry: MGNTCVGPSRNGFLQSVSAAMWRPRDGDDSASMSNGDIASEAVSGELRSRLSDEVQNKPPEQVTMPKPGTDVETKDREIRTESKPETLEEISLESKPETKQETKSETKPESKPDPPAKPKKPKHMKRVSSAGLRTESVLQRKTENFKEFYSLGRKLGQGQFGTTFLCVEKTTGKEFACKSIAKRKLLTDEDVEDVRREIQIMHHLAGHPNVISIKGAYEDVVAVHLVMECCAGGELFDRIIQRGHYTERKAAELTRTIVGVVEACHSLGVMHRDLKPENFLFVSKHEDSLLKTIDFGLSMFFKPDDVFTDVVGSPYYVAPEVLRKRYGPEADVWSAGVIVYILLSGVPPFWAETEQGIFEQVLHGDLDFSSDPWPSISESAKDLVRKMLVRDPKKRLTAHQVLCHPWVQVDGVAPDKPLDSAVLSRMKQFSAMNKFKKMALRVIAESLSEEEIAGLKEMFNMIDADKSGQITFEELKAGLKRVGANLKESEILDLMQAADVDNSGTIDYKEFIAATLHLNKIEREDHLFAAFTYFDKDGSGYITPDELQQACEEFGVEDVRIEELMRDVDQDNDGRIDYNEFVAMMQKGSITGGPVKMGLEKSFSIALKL
UniProt P21462, whole entry: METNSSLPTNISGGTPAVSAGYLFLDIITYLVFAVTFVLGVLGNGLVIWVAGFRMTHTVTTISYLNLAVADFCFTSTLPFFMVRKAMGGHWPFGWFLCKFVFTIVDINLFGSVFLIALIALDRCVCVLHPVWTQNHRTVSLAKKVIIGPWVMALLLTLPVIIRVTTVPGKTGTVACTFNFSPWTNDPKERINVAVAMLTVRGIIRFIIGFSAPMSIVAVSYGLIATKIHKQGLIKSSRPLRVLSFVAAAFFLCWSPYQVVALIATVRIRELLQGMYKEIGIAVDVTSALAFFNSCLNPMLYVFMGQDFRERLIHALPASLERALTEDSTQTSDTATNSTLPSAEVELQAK
UniProt O15151, 23-111 limits assumed: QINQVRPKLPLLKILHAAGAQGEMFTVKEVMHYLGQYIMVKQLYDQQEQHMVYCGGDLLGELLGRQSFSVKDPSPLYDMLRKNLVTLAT
UniProt Q00959, 23-1464 limits assumed: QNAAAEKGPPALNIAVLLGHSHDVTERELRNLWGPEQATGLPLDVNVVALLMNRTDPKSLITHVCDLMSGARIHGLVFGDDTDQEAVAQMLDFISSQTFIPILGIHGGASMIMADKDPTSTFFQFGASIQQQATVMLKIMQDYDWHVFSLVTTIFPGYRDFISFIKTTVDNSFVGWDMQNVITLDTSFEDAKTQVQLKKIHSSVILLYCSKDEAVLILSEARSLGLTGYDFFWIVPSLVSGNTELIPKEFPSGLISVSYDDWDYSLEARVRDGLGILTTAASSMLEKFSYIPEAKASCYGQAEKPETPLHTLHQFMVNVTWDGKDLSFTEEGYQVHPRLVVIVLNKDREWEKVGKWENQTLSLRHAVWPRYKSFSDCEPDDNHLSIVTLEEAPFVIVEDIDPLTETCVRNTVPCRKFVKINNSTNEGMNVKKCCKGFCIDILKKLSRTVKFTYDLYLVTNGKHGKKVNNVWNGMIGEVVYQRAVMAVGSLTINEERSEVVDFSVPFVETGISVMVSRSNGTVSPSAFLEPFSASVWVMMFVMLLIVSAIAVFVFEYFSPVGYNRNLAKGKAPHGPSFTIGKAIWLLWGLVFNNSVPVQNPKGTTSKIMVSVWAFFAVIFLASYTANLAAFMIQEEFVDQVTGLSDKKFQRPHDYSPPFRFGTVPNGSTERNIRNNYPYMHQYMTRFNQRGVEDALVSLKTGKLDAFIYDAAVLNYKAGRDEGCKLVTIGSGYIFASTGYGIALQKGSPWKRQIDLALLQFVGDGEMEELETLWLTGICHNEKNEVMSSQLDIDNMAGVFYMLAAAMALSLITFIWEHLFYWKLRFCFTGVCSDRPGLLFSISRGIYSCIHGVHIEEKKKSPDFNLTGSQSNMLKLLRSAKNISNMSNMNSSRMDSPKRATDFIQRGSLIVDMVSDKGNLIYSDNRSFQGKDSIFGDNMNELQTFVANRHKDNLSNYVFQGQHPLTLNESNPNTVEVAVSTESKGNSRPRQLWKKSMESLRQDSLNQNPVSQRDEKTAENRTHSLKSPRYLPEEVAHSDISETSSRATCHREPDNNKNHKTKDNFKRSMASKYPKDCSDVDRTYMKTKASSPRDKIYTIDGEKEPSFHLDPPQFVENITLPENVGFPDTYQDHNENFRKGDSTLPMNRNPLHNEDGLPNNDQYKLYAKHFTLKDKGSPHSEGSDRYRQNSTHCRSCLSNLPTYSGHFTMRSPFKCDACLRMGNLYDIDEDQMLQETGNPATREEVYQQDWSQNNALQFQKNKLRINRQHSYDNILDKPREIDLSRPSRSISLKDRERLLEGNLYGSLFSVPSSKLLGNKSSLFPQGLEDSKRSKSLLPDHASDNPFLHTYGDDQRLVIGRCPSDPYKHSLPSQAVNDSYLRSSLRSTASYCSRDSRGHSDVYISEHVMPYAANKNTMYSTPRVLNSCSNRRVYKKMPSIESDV
UniProt P45983, whole entry: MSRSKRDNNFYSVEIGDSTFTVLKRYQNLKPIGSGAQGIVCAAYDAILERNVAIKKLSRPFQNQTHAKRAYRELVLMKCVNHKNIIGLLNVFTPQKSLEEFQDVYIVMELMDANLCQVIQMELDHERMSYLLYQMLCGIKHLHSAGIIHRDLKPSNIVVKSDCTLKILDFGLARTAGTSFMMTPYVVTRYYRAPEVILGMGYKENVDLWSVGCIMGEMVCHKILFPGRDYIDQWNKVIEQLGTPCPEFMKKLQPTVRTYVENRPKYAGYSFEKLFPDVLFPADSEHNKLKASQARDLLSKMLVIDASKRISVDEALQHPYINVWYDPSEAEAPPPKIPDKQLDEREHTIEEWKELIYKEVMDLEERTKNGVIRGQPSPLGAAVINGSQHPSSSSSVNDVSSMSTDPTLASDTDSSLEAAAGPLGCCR

CN(C)CCNC(=O)c1cccc2ccc(-c3ccc(-c4ccccc4)cc3)nc12 — binding free energy (NQO2 (Homo sapiens, UniProt P16083); from IC50 by Cheng-Prusoff): -41.3 kJ/mol
N#Cc1c(-c2ccc(Cl)cc2Cl)n(-c2nc(-c3ccc(Cl)cc3)c3c(NC(=O)c4ccccc4)nnc-3[nH]2)[nH]c1=O — cell growth (SK-MEL-5; SRB; 10 µM): 0.62%
CC/C=C\C/C=C\CCC/C=C/C=C/C=C\CCCC(=O)O — IC50 (T7 RNA polymerase (Enterobacteria phage T7, UniProt P00573); enzyme activity, inhibitor): > 100000 nM
CCOC(=O)c1c(-c2ccc(Cl)cc2Cl)n(-c2nc(-c3ccc(Cl)cc3)c3c(NC(=O)c4ccccc4)nnc-3[nH]2)[nH]c1=O — cell growth (SK-OV-3; SRB; 10 µM): 19.9%
CC[C@H](C)[C@H](NC(=O)[C@H](CCCNC(=N)N)NC(=O)[C@H](CCCCN)NC(=O)[C@H](CCCNC(=N)N)NC(=O)[C@H](C)NC(C)=O)C(=O)N[C@@H](Cc1ccc(OP(=O)(O)O)cc1)C(=O)N[C@@H](C)C(=O)N[C@@H](C)C(N)=O — Km (PTPN1; substrate, continuous UV; pH 7.4, multiply phosphorylated peptides apparent): > 500000 nM
CC(C)C[C@H](NC(=O)[C@@H](NC(=O)[C@H](CC(C)C)NC(=O)[C@H](CS)NC(=O)CNS(=O)(=O)c1cccc2c(N(C)C)cccc12)C(C)C)C(=O)O — kcat (geranylgeranyltransferase type-I (Rattus norvegicus, UniProt P53610+Q04631); substrate, fluorescence; 30 °C, GGPP 10 µM/enzyme 10 nM, with: SmgGDS-607 5 µM): 0.057 ± 0.017 s⁻¹
CC(=O)NCCCC[C@H](NC(=O)[C@H](CCCCNC(C)=O)NC(=O)[C@H](Cc1c[nH]cn1)NC(=O)[C@H](CCCNC(=N)N)NC(C)=O)C(=O)Nc1ccc2c(C)cc(=O)oc2c1 — kcat (HDAC6 (Homo sapiens, UniProt Q9UBN7); deacetylation, substrate; 25 °C, with: 10 to 50 nM enzyme): 0.148 ± 0.016 s⁻¹
C=C(C)C(=O)Nc1ccc(-c2c(-c3ccc(Oc4nccc(C)n4)c(F)c3)c3c(N)ncnc3n2C)cc1 — IC50 (MFE-296; cell growth, CellTiter-Glo; 120 h): 99.3 nM
CC(=O)N[C@@H](C)C(=O)N[C@@H](Cc1c[nH]c2ccccc12)C(=O)N[C@@H](CO)C(=O)N[C@@H](Cc1ccc(OP(=O)(O)O)cc1)C(=O)N[C@@H](C)C(=O)N[C@@H](CC(=O)O)C(=O)N[C@@H](Cc1ccc(OP(=O)(O)O)cc1)C(=O)N[C@@H](C)C(=O)N[C@@H](C)C(N)=O — Km (PTPN1; substrate, continuous UV; pH 7.4, multiply phosphorylated peptides apparent): 910 ± 80 nM
CC[C@H](C)[C@H](NC(=O)[C@H](CCCCN)NC(=O)[C@H](CCCNC(=N)N)NC(=O)[C@H](CCCCN)NC(C)=O)C(=O)N[C@@H](CC(C)C)C(=O)N[C@@H](CO)C(=O)N[C@@H](COP(=O)(O)O)C(=O)N[C@@H](CC(=O)O)C(=O)N[C@@H](CC(=O)O)C(=O)N[C@@H](CO)C(=O)N[C@@H](CC(C)C)C(=O)N[C@@H](CCCNC(=N)N)C(=O)N[C@@H](CO)C(N)=O — TΔS (YWHAG (Homo sapiens, UniProt P61981); isothermal titration calorimetry; 37 °C): -0.8 kcal/mol
CC[C@H](C)[C@H](NC(=O)[C@H](CCCNC(=N)N)NC(=O)[C@H](CO)NC(=O)[C@@H](NC(=O)[C@@H](NC(=O)[C@H](CCCCN)NC(=O)[C@@H](N)C(C)C)[C@@H](C)CC)[C@@H](C)CC)C(=O)N[C@@H](Cc1ccccc1)C(=O)N[C@@H](CO)C(=O)N[C@@H](CCC(N)=O)C(=O)N[C@@H](CCCNC(=N)N)C(=O)N[C@@H](CO)C(=O)N[C@@H](Cc1ccccc1)C(=O)N[C@@H](CCCNC(=N)N)C(=O)N[C@@H](CCCNC(=N)N)C(=O)O — relative phosphorylation (CPK1 (Arabidopsis thaliana, UniProt Q06850); peptide phosphorylation, substrate, scintillation proximity; 20 µM, 24 min, with: 10 µM ATP; baseline: no peptide control, higher = more phosphorylation): 20 fold
CCc1cc2c(=O)c(-c3nc4ccccc4n3C)c(C)oc2cc1OC(C)=O — affinity ratio (FPR1 (Homo sapiens, UniProt P21462); baseline: FPR1 over FPR2): > 100 fold
COc1ccc(C2=N[C@@H](c3cccc(Cl)c3)[C@@H](c3ccc(Cl)cc3)N2C(=O)N2CCNC(=O)C2)c(OC(C)C)c1 (relative stereo) — ΔG (Protein Mdm4 (MDM4, Homo sapiens, UniProt O15151); isothermal titration calorimetry; 298 K): -7.3 ± 0.4 kcal/mol
CC(=O)C12NC(C)(C)CC1(C)C(=O)C1=C2c2c(c3c4n2C(C)(C)CC2=C4C4(CC(C)(C)NC(C)(C4)C2=O)CC3(C)C)C(=O)C(C)(C)N1 (single isomer, unassigned) — inhibition (SCN2A (Homo sapiens, UniProt Q99250); sodium current; 10 µM): 32 ± 0.01%
NC12CC3CC(F)(CC(C1)c1ccccc13)C2 — V0 of IC50 (Glutamate NMDA receptor; Grin1/Grin2a (Grin1/Grin2a, Rattus norvegicus, UniProt P35439+Q00959); ion current, channel blocker, whole-cell patch clamp; tsA201 cells; 10 µM, -105 to +55 mV, no Mg2+, with: 1 mM glutamate; baseline: IC50 at -65 mV): 25.4 ± 0.54 mV
CC(C)C[C@H](NC(=O)[C@H](C)NC(=O)[C@H](CCCNC(=N)N)NC(=O)[C@H](CCCNC(=N)N)NC(=O)[C@H](CCCNC(=N)N)NC(=O)[C@H](C)NC(=O)[C@H](CC(C)C)NC(=O)[C@H](CCCNC(=N)N)NC(=O)[C@H](CO)NC(=O)[C@H](CCCCN)NC(=O)[C@H](CO)NC(=O)Cn1cc(COC(=O)[C@]2(C)C=C(C(=O)OC(C)(C)C)C(=O)CC2)nn1)C(=O)O — fraction bound (MAPK8 (Homo sapiens, UniProt P45983); binding, competitor, fluorescence polarization; 25 µM; higher = less displacement): 0.0838

Excerpt of the above:
CC(=O)C12NC(C)(C)CC1(C)C(=O)C1=C2c2c(c3c4n2C(C)(C)CC2=C4C4(CC(C)(C)NC(C)(C4)C2=O)CC3(C)C)C(=O)C(C)(C)N1 (single isomer, unassigned) — inhibition (SCN2A (Homo sapiens, UniProt Q99250); sodium current; 10 µM): 32 ± 0.01%
NC12CC3CC(F)(CC(C1)c1ccccc13)C2 — V0 of IC50 (Glutamate NMDA receptor; Grin1/Grin2a (Grin1/Grin2a, Rattus norvegicus, UniProt P35439+Q00959); ion current, channel blocker, whole-cell patch clamp; tsA201 cells; 10 µM, -105 to +55 mV, no Mg2+, with: 1 mM glutamate; baseline: IC50 at -65 mV): 25.4 ± 0.54 mV
